Experimental data gathered from unrelated publications.
Lines come from different studies, so protocols differ. “And” joins repeats or separate records; there may be more than shown. Numbers after ± are the reported error. Values after ≈ are worked out from the molar mass of the structure shown.

With `COC(=O)c1cc(NC2=NC(=O)C(=Cc3ccc(N(C)C)cc3)S2)ccc1OC(C)=O` the metabolite level was 0.5 fold change (MCF7; GC-MS, measured: Uracil; 1 µM; reference: DMSO).
`N#Cc1cccc(/C=C/C(=O)c2ccc(O)cc2)c1` has a fold change of 99.5 (U-87 MG; measured: HSPH1; concentration not given; reference: untreated).
For `O=C(Nc1ccon1)C12CC3CC(C1)CC(n1cnc([N+](=O)[O-])n1)(C3)C2`, the translation activity was 100% (Trypanosoma cruzi; reporter mRNA translation, inhibitor, measured: Renilla luciferase mRNA; cell-free extract; concentration not given, test 3; reference: positive over negative control).
With `COc1ccc(CSC2C3=C(CCCC3=O)Oc3ccc(Br)cc32)cc1` (stereo not shown) the IC20 was 22.2 µg/mL (≈ 51.5 µM) (3T3-L1; cell growth or viability, MTT; 72 h).
Under “log2 fold change”, `CN1CCCNC(=O)c2cccc(c2)C(=O)NCCCN(C)CCCNc2cccc3c2C(=O)c2cccc(c2C3=O)NCCC1` is recorded as -0.484 (SAS; RNA-Seq, measured: PPP1R12A mRNA; 1 µM, 6 h; reference: untreated cells).
`CC[C@H]1CN([C@@H](CC)c2ccc(C(F)(F)F)cc2)[C@H](CC)CN1c1nc(=O)n(C)c2ccc(C#N)nc12` has a Hill slope of 0.308 (human CD4 T cells; phosphoproteomics, measured: POLE4 S9; 60 min, C2_P1 precursor).
`Cc1cc(Cl)cc(-c2ccnc3cc(CN4C(=O)C5C(C4=O)C5(C)C)sc23)c1C[C@@H]1CNCCO1` (stereo partly shown) — result for “apoptotic cells (early plus late)”: 38.4% and 35.4% and 26.2% and 31.3% and 42.3% and 35% (CHP-212 parental (wild-type USP7); annexin V-PI flow cytometry; 0.3 µM, 48 h).
`CCOc1cncc(-c2ccc(NC(=O)C3(c4ccnc(NS(=O)(=O)C5CC5)n4)CCOCC3)nc2)n1` gave an IC50 of 32 nM (EJM; cell growth or viability, ATP luminescence; 72 h).
With `COC(=O)[C@@]1(C)C=C(C(=O)Nc2cccc(C(=O)Nc3ccc(Nc4nccc(-c5cccnc5)n4)c(C)c3)c2)C(=O)CC1` the reporter activity was 1.04 and 1.02 (HEK293 AP1 reporter cells; AP-1 reporter gene, inhibitor; 1 µM, 6 h, unit not given, with: PMA; reference: PMA alone).
`CNS(=O)(=O)Nc1nccc(Cc2c(C)c3ccc(Oc4ncccc4F)cc3oc2=O)c1F` gave an IC50 of 7.35 nM (SW-403; cell viability; 7 days).
The GI50 of `CCN(C(=O)c1cc(F)ccc1Oc1nncnc1N1CCC2(C1)CN([C@H](CCCN(C)CCOC)C(C)C)C2)C(C)C` is reported as > 10000 nM (Panc1005; cell growth or viability; 7 days).
With `CN(C)c1ccc(-n2cc(COC(=O)[C@]3(C)C=C(C(=O)OC(C)(C)C)C(=O)CC3)nn2)cc1` the pRSK/tubulin ratio was 0.155 (HeLa; quantitative western blot; concentration not given, 4 (unit not given), with: EGF).
The viability of `O=CCNCCOn1c(=O)n(OCCNCCO)c(=O)n(OCCNCCOn2c(=O)n(OCCNCCO)c(=O)n(OCCNCCO)c2=O)c1=O` is reported as 52.6% (A549; cell growth or viability, MTT; 12.5 µg/mL, 24 h).
For `Cn1ncc2cc(-c3cncc(Cl)c3N3CCC4(CCNC4=O)CC3)ccc21`, “log2 fold change” read 2.54 (LS174T; gene expression, microarray, measured: KLF6 mRNA; concentration not given, 4 h; reference: untreated cells).
`COc1cc(N2CCN(C(=O)C3CCCN3)CC2)ccc1Nc1ncc(Cl)c(Nc2ccccc2P(C)(C)=O)n1` (stereo not shown) — result for “S phase cells”: 6.86% and 8.85% and 7.55% (NCI-H3122; flow cytometry; 500 nM, 24 h).
`O=C(N1CCCC1)n1cc(-c2ccc(-c3ccccc3)cc2)nn1`: “SILAC ratio per peptide” 0.81 and 0.97 and 1.05 and 1.25 and 0.82 (mouse T cells; N-terminal labelling proteomics, measured: Efhd2 N-terminal peptide; 0.001 µM, 6 h; reference: DMSO).
With `[BH3-][P+]1(c2ccccc2)CCCCC1` the live cells was 50% (PC-3; trypan blue; concentration not given, 72 h, compound at IC50; reference: control).
`CO[C@@H]1[C@@H](OC(N)=O)[C@@H](O)[C@H](Oc2ccc3c(O)c(NC(=O)c4ccc(O)c(CC=C(C)C)c4)c(=O)oc3c2C)OC1(C)C` gave a colony survival of 84.1% (HCT-116 BRCA2 wild-type; 75 µM, replicate B; reference: untreated).
`Cc1ncsc1-c1ccc(C(C)NC(=O)C2CC(O)CN2C(=O)C(NC(=O)CCCCCCCCCCN2CCCC(Nc3ncc(Cl)c(Nc4ccccc4S(=O)(=O)C(C)C)n3)C2)C(C)(C)C)cc1` (stereo not shown) — result for “log2 fold change”: -1.29 (22Rv1; RNA-seq, measured: TULP3 mRNA; concentration not given; reference: DMSO).
For `C=C1C(=O)OC2C1CCC(C)(O)C13C=CC(C)(C21)C1(C3)C(=O)OC2C3C(C)C(=O)CC3C(=C)CC(OC(C)=O)C21` (stereo not shown), triglyceride content read “decreased” (AML12; concentration not given, concentration-dependent, with: palmitate/oleate).
The surface-bound fraction of `COc1cccc(OC)c1-c1cc(C(=O)NC2(C(=O)O)C3CC4CC(C3)CC2C4)nn1-c1ccc(C(=O)N(C)CCOCCOCCN(C)C(=O)[C@H](CCCCNC(=O)[C@H](CC(C)C)NC(=O)C2OC2C(=O)O)NC(=O)CN2CCN(CC(=O)[O-])CCN(CC(=O)[O-])CCN(CC(=O)[O-])CC2)cc1C(C)C.[177Lu+3]` (mixture of isomers) is reported as 0.67 ± 0.05% (HT-29; concentration not given, 120 min; reference: added activity).
`COc1ccc2c(c1)c(CC(=O)[Se]CC(=O)Nc1cccc(C(F)(F)F)c1)c(C)n2C(=O)c1ccc(Cl)cc1` gave a GI50 of 1820 nM (NCI60 CNS cancer panel; five-dose screen).
With `CSCC[C@@H]1NC(=O)[C@H](CC(N)=O)NC(=O)[C@@H](NC(=O)CCOCCOCCOCCNC(=O)CN2CCN(CC(=O)O)CCN(CC(=O)O)CC2)CSSC[C@@H](C(=O)O)NC(=O)[C@H](C(C)C)NC(=O)[C@H](CCSC)NC(=O)[C@@H]2CCCN2C(=O)[C@H]([C@@H](C)O)NC(=O)[C@H](Cc2c[nH]cn2)NC1=O` [gallium-68 labelled] the cell uptake was 3.14 ± 0.42% (activated human PBMCs; 60 min).
For `CCc1c(C)c2ccc(OC(C)C)c(C)c2oc1=O`, the viability was 5.5% (PC-3; cell growth or viability, MTT; 125 µg/mL).
For `CCCCCCC(=O)[O][Pt]([NH2])([NH2])([Cl])([Cl])[O]C(=O)CCC(C)C1CCC2C3CCC4CC(O)CCC4(C)C3CCC12C` (stereo not shown), “γ-H2AX protein level” read “increased” (PC-3; Western blot; concentration not given, 48 h; reference: untreated).
`Cc1ccc(-n2cc(CSc3nc4ccccc4n3Cc3cn(-c4ccc(C)cc4)nn3)nn2)cc1` gave a cytotoxicity of 6.14% (HEK293; MTT; 3.91 ppm).
The translation activity of `COc1ccccc1CN1CC(C(=O)NCCN(C)CCc2ccccc2)CCC1=O` (stereo not shown) is reported as 158% and 92.9% (Trypanosoma cruzi; reporter mRNA translation, inhibitor, measured: Renilla luciferase mRNA; cell-free extract; concentration not given, test 2; reference: positive over negative control).
`Cc1cc(NC2CCN(C)CC2)ccc1-c1cc2c(N3CCC[C@H](C(=O)NCc4ccc(OC(F)(F)F)cc4)C3)ncnc2[nH]1` has an inhibition of 56.6% (KARPAS-299; cell growth or viability, MTT; 0.0016 µg/mL, 72 h).
`CCCCCCCC(=O)[O][Pt]([Cl])([Cl])[O]C(=O)CCCCCCC.N.N` — result for “IC50 fold reduction”: 4.5 fold (A549/DDP cisplatin-resistant; with: survivin siRNA transfection; reference: non-transfected over transfected).
The IC50 of `CC(C)c1ccc(N(C)c2ccc3c(c2)OCC[C@H]3CNc2cnccc2C(=O)O)cc1` is reported as ≥ 10000 nM (NCI-H1573; cell growth or viability, ATP luminescence; 7 days).
With `COc1ccccc1-c1ccncc1C(=O)Nc1nnc(OCc2ccc(Cl)cc2)s1` the colony count was 6 and 5 and 4.5 (DLD-1 BRCA2-/-; 8 µM, mean of replicates).
For `C=C1C(=O)OC2C1CCC(C)(O)C13C=CC(C)(C21)C1(C3)C(=O)OC2C3C(C)=CCC3C(C)(OC(C)=O)CC(O)C21` (stereo not shown), the maximum inhibition was 12.3 ± 1.48% (AML12 mouse hepatocytes; lipid accumulation, Nile Red staining; maximum safe concentration, 24 h, with: palmitic acid/oleic acid).
`O=S(=O)(C1CC2OC1C(c1ccc(O)cc1)=C2c1ccc(O)cc1)N1CCCc2ccccc21` (stereo not shown) gave an Emax of 0.4% (MCF7 3xERE-luc, steroid-deprived; ERE luciferase reporter, agonist; reference: vehicle).
Under “early apoptotic cells”, `CCC(=CCc1c(O)cc2c(c1O)C(=O)CC(c1ccc(O)cc1)O2)CC` (stereo not shown) is recorded as ≤ 0.29% (HeLa; annexin V/PI staining; range over 12 to 48 µM).
The fold regulation of `CCN(CC)CC(=O)Nc1cccc(-n2cc(-c3ccc4ccc(-c5cn(-c6cccc(NC(=O)CN(CC)CC)c6)nn5)cc4c3)nn2)c1` is reported as 1.33 (RCC4; PCR angiogenesis array, measured: FLT1; 5 x IC50, 2 h, normoxia; reference: untreated).
The inhibition of `Cc1cc(NC2CCN(C)CC2)ccc1-c1cc2c(N3CCC[C@H](C(=O)N[C@H](C)c4ccccc4)C3)ncnc2[nH]1` is reported as 10.8% (KARPAS-299; cell growth or viability, MTT; 0.008 µg/mL, 72 h).
The EC50 of `CN(C)Cc1nc(Nc2ccc(-c3cnc4cc(F)ccn34)c3c2C(=O)NC3)ccc1C1CCOC1` (stereo not shown) is reported as 11 nM (human CD4 T cells; cytokine induction, measured: IFNγ; with: anti-CD3/CD28).

Excerpt of the above:
`Cc1ccc(-n2cc(CSc3nc4ccccc4n3Cc3cn(-c4ccc(C)cc4)nn3)nn2)cc1` gave a cytotoxicity of 6.14% (HEK293; MTT; 3.91 ppm).
The surface-bound fraction of `COc1cccc(OC)c1-c1cc(C(=O)NC2(C(=O)O)C3CC4CC(C3)CC2C4)nn1-c1ccc(C(=O)N(C)CCOCCOCCN(C)C(=O)[C@H](CCCCNC(=O)[C@H](CC(C)C)NC(=O)C2OC2C(=O)O)NC(=O)CN2CCN(CC(=O)[O-])CCN(CC(=O)[O-])CCN(CC(=O)[O-])CC2)cc1C(C)C.[177Lu+3]` (mixture of isomers) is reported as 0.67 ± 0.05% (HT-29; concentration not given, 120 min; reference: added activity).
